Measurements collected from several papers.
Each numbered part is a random draw from the data of one study; scales do not carry over between parts. Substitutions count along the parent as printed.

Block 1
Target: Hepatocyte nuclear factor 3-alpha (Foxa1, Mus musculus, UniProt P35582, residues 1-468, full length assumed)
Chain of UniProt P35582 (whole entry, looked up): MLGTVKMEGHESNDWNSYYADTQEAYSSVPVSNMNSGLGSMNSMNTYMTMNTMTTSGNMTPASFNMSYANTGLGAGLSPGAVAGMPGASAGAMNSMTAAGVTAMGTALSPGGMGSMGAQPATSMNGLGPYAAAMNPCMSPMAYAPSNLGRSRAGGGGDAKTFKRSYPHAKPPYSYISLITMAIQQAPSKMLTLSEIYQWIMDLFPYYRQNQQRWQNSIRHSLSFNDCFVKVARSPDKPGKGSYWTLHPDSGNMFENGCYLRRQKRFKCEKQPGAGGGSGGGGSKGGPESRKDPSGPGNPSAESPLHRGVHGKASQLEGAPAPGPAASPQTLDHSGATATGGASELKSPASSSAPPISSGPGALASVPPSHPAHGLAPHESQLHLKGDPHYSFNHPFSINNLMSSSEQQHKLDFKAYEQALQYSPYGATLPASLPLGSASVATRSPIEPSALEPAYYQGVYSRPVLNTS
Method: EMSA with sequencing
Molecule type: double-stranded DNA, one strand shown
Medium: in vitro
Concentration: 10 and 20 nM
Setting: whole designed probe, mean of two concentrations, ends assumed
Baseline: negative control set to 0
Direction: higher = stronger binding
| Strand | normalised bound fraction [ratio] |
| --- | --- |
| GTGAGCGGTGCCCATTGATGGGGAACCTAGTTCCAGTCTTAGCATGACAATTTCTTCCTGCAACGTACTATTTTCATGCAAGAGGTCTTTTTCTTTCTTATAACTAAGAGAAAGCTAAGTAATCTAAGGGAACTTTTAGTTAGCACTCAATAGATTGATATATCATGATTTCTTCTGAAATTAAAAAATAACATCTGTATTTGTATAATGAAAGAATCCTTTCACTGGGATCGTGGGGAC | 0.163 |
| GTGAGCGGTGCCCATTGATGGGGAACATCTTCCCCCTCTTCCTTGCCCCACCAGCTCACCTACGGGGGTTATTTGCACAAAGGAAAATAAATAAAGCCGGCATTCGTTAACCCTCTTCACGCGCATACTGCTGTTTGCTCTGGATCTAACATGGTCCTTTGGCGAGGCGTGGCTCCGGGAGAGCAAAGCACCGTGTCAGGGCCATGATCCGGGCTCGCCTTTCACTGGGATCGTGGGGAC | 0.385 |
| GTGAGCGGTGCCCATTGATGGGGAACATGAGTGTGCATATAATTTGACAGTGACCTCTTGCACTAGACTAATCAGTAAGACTGACTTTCCCTGATGTTGCTGTCAAGGAAGATGCTTCCTTGTTTACTCATTCATGGGCATTGCTCTTGAAAAATGTATAACCATGTGAGTCATTTCTATGCTTCAGTGTAAAACAAGAATTTCCCCCCAAATTTTAGATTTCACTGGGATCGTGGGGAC | 0.258 |
| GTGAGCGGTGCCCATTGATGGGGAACCTTTAAGGATTTCAATGTTATAAATAAAAGCTAAGTCCACTGTCATTCATTTTTTATGTCCTACAACAAGGTTACAAAATTAAAATCATATAAAGTAAACATGAAGAGGAAAAGCTTGATCTACTCAATGCATCCACTTCTTCCCAGTTCTCCCCATCCTCTGCCAAGTTGTACCAGGGAGAGTGAAGGAGAATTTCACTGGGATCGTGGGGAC | 0.437 |
| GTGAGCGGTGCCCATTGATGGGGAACATCTTCCCCCTCTTCCTTGCCCCACCAGTTTACCTTCCCGGGTTATTTGCAGATAGGAAAATAAATAAAGCCGGCATTCGTTAACCCTCTTCTGGCGCAAACTGCTGTTTGCTCTGGATGAATCATGGTCCTTTGGCGACGCCAGGCTCCGGGAGAGCAAAGCACCGTGTCAGGGCCATGATCCGGGGTGGCCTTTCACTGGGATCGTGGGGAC | 0.32 |
| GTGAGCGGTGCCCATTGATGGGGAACCCCTCATCCTGGGTGTCGGGGTGGGAGGTGTTCTCATCATGAATGGGAGGCGTACCCAGATCGTGACTCACCATTTTTTAACCAAACCAGAGTGTAAACAAATGGCTGTGTGTCACACCATAATCGACATAGCAAGATATGATACATGCCAGGAGAGAAAAAGAAAGTGCTGATGGAAAAATAATCTCATTAGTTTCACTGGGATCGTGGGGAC | 0.315 |
| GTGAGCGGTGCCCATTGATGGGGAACAACAAGGCCCAAATTTTAATTATGCAGGAGGTTAATAGTCACACAGATGACTTTCCGGTAAGATAAACAGTGAAAACTTGGCAAATGCTAATGTAATTTACTCCCCCCTCCTGCCCTCTCATTCCTGAAAATTGTACTCATTCTTGCAGAGTTCATATATGAGAACAGGGTATCCTAACCTAGTTAGAAGCACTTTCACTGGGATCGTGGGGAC | 0.085 |
| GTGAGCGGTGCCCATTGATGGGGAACTCGTGATTTGATATCTTGGTAATTTAGACTAGAGCCAGAGCAGTTTTTAAAGAGAATCTTTTCTGATCATTTTAAGCAGCATGATAAATTCTAAGTAATCTTAAATTTTGAATAATTACAGAGTGGGCATGAGCTCTTCCTTTCTTTGTTCCTCTACATGCAAGAAACTGGATGCCAAGCCCAACCTCTGGATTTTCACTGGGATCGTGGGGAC | -0.0806 |

Block 2
Target: CCND1, cyclin fold, Cln2 fusion (human)
Method: yeast growth competition, sequencing
Medium: yeast
Setting: weak parent motif
Baseline: not given
Direction: higher = stronger binding
Starting sequence: SAMHD1 docking peptide (human); ASKSRVQLFKDDP
| Variant | normalised enrichment score |
| --- | --- |
| ASKSRVQLFKADP [D11A] | 0.391 |
| ASKSRVQLFKFDP [D11F] | 0.511 |
| ASKSRVQLGKDDP [F9G] | -0.141 |
| ASMSRVQLFKDDP [K3M] | 0.609 |
| ASKDRVQLFKDDP [S4D] | 0.147 |
| ASKSRVQLFKHDP [D11H] | 0.0108 |
| ATKSRVQLFKDDP [S2T] | 0.379 |
| ASKSRVMLFKDDP [Q7M] | -0.0498 |
| ASKSRMQLFKDDP [V6M] | 0.193 |
| ASKSWVQLFKDDP [R5W] | 0.276 |
| ASKSRVQLWKDDP [F9W] | 0.275 |
| ASKSRVRLFKDDP [Q7R] | 0.587 |
| ASKERVQLFKDDP [S4E] | -0.0235 |
| ASKSRVQLFKDCP [D12C] | 0.26 |

Block 3
Target: ABI1, truncated, D143A, DHFR fusion (Arabidopsis thaliana)
Method: DHFR PCA, deep sequencing
Medium: yeast
Setting: methotrexate growth selection, single substitutions
With: (+)-ABA 0.032 µM
Baseline: wild-type fitted maximum
Direction: higher = stronger binding
Starting sequence: PYL1, truncated, DHFR fusion (Arabidopsis thaliana); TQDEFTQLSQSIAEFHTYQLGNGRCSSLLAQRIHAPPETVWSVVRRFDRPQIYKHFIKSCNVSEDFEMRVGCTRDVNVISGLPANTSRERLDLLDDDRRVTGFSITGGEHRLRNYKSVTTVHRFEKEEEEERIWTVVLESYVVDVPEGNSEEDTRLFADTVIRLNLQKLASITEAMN; partner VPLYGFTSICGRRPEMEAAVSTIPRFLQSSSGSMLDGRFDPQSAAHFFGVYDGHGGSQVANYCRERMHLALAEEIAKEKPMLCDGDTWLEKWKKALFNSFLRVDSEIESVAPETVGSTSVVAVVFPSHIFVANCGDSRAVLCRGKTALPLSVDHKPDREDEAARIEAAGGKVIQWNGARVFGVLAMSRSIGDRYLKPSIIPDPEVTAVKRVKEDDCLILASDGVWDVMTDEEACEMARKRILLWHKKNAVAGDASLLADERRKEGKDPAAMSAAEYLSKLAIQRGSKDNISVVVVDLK
| Variant | relative binding score |
| --- | --- |
| P37K | 0.248% |
| N85L | 56.6% |
| Q19T | 30.8% |
| T1H | 22.1% |
| S80W | 51.4% |
| V142W | -4.72% |
| P146W | -1.34% |
| D153G | 2.11% |
| E67Y | -1.3% |
| L112F | 6.66% |
| V145C | -10.4% |
| A30Q | 25% |
| L169N | -9.96% |
| C72L | 0.208% |
| T1R | 22.6% |
| D97T | 31.9% |
| L29Y | 0.444% |
| Q10M | 12% |

Block 4
Target: Fragile X messenger ribonucleoprotein 1, C-terminal low-complexity region (Fmr1, Mus musculus, UniProt P35922)
Method: RNA Bind-n-Seq
Molecule type: RNA
Medium: in vitro
Concentration: 200 nM
Setting: whole 134-nt RNA, ends assumed
With: 150 mM LiCl
Baseline: input library
Direction: higher = stronger binding
Library: 7-deaza-guanosine replaces G
| Strand | log2 enrichment |
| --- | --- |
| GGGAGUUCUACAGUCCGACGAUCGCAGGAAGUAAAAACAAAUGGAAAUGCUUCGGAUAGUGGCAGGGGUGGGGGUUGCUAAGGAAAGGGUGGGAUGGGCGUGGGUAAAGAGUUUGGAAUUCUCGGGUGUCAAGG | 1.23 |
| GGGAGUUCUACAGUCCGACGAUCCAAGUCCUGUGCUACACAUCGUAUGUACCGAAUCGGGGCCGGGGCCGGGCCGGGGAAAGUAUUAUGUUACGCCGUUCGGAUCUGCACUUCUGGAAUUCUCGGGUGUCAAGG | 0.432 |
| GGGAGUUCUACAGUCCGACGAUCGCAGGAAGUAAAAACAAAUGGAAAUGCUUCGGAUAGUGGCAGGGGUGGGGGUUGCUAAGGAAAGGGUGGGAUGGGAGUGGGAAAAGAGUUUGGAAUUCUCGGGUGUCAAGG | 1.54 |
| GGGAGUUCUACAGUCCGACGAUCAGUCCUGUGCUACACAUCGUAUGUACCGAAUCGGAAAAAGGAAAAAGGGAAAAAGGGAAAGUAUUAUGUUACGCCGUUCGGAUCUGCACUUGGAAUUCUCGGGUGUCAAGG | -1.63 |
| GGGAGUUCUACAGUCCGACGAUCCAAGUCCUGUGCUACACAUCGUAUGUACCGAAUCGGUUUGGAAAAAGGAAAAAGGAAAGUAUUAUGUUACGCCGUUCGGAUCUGCACUUCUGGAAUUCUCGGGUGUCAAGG | -1.27 |
| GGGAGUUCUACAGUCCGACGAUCAGUCCUGUGCUACACAUCGUAUGUACCGAAUCAAAUUUUUAAACCCAAACCCCCAAAAAAGUAUUAUGUUACGCCGUUCGGAUCUGCACUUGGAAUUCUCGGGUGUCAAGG | 0.982 |
| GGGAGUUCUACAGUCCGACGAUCGUCCUGUGCUACACAUCGUAUGUACCGAAUCGGGGAAAAAGGGGAAAAAGGAAAAAGGAAAGUAUUAUGUUACGCCGUUCGGAUCUGCACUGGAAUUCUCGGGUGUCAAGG | 0.286 |
| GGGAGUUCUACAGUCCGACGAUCCACAGACAACACGCACCCACACAGACACAGAGGGAAGGGGUUGGGAUGGGGACAGGGUGCACAGCAGGGCGGGCUAGGACCCCAGCCCCUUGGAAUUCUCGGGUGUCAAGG | 0.629 |
| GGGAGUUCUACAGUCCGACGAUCGUCCUGUGCUACACAUCGUAUGUACCGAAUCGGCCCCCGGGGCCCCCGGGCCCCCGGGAAAGUAUUAUGUUACGCCGUUCGGAUCUGCACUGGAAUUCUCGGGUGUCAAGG | -2.56 |

Block 5
Target: NFE2, bZIP domain (human)
Method: DHFR protein complementation
Medium: yeast
Setting: single substitutions, most at no-binding floor
Baseline: wild-type JUN-FOS pair
Direction: higher = stronger binding
Starting sequence: JUN, bZIP domain (human); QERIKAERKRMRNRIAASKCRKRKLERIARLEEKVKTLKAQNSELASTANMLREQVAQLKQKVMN; partner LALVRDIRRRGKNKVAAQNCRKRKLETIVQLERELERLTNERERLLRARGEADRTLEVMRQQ
| Variant | binding fitness [natural log] |
| --- | --- |
| V35E | -1.46 |
| T48G | -1.45 |
| K34P | -1.53 |
| Q41T | -1.44 |
| S43E | -1.5 |
| Q55S | -1.48 |
| S47N | -1.53 |
| L52P | -1.5 |
| K36G | -1.49 |
| Q41P | -1.51 |
| K36I | -1.49 |
| L45V | -1.52 |
| E54G | -1.45 |

Some of these lines once more (block 4):
| Strand | log2 enrichment |
| --- | --- |
| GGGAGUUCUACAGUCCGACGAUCGCAGGAAGUAAAAACAAAUGGAAAUGCUUCGGAUAGUGGCAGGGGUGGGGGUUGCUAAGGAAAGGGUGGGAUGGGCGUGGGUAAAGAGUUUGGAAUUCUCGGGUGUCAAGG | 1.23 |
| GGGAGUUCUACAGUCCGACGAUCCAAGUCCUGUGCUACACAUCGUAUGUACCGAAUCGGGGCCGGGGCCGGGCCGGGGAAAGUAUUAUGUUACGCCGUUCGGAUCUGCACUUCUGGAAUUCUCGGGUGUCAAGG | 0.432 |
| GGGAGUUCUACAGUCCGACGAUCGCAGGAAGUAAAAACAAAUGGAAAUGCUUCGGAUAGUGGCAGGGGUGGGGGUUGCUAAGGAAAGGGUGGGAUGGGAGUGGGAAAAGAGUUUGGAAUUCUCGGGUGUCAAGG | 1.54 |
| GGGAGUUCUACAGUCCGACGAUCAGUCCUGUGCUACACAUCGUAUGUACCGAAUCGGAAAAAGGAAAAAGGGAAAAAGGGAAAGUAUUAUGUUACGCCGUUCGGAUCUGCACUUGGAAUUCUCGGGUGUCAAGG | -1.63 |
| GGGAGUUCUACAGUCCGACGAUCCAAGUCCUGUGCUACACAUCGUAUGUACCGAAUCGGUUUGGAAAAAGGAAAAAGGAAAGUAUUAUGUUACGCCGUUCGGAUCUGCACUUCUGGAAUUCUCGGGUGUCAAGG | -1.27 |
| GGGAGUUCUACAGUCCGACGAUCAGUCCUGUGCUACACAUCGUAUGUACCGAAUCAAAUUUUUAAACCCAAACCCCCAAAAAAGUAUUAUGUUACGCCGUUCGGAUCUGCACUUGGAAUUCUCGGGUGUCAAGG | 0.982 |
| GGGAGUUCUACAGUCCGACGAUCGUCCUGUGCUACACAUCGUAUGUACCGAAUCGGGGAAAAAGGGGAAAAAGGAAAAAGGAAAGUAUUAUGUUACGCCGUUCGGAUCUGCACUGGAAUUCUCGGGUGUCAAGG | 0.286 |
| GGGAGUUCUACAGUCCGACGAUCCACAGACAACACGCACCCACACAGACACAGAGGGAAGGGGUUGGGAUGGGGACAGGGUGCACAGCAGGGCGGGCUAGGACCCCAGCCCCUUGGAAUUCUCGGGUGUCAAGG | 0.629 |
| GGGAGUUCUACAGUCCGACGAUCGUCCUGUGCUACACAUCGUAUGUACCGAAUCGGCCCCCGGGGCCCCCGGGCCCCCGGGAAAGUAUUAUGUUACGCCGUUCGGAUCUGCACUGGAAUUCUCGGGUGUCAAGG | -2.56 |
